Measurements from different studies.
A part holds a random share of what one study measured.

Sample 1
Target: Sal-like protein 4, full length isoform A (SALL4, Homo sapiens, UniProt Q9UJQ4, residues 1-1053)
Sequence of UniProt Q9UJQ4 (whole entry, looked up): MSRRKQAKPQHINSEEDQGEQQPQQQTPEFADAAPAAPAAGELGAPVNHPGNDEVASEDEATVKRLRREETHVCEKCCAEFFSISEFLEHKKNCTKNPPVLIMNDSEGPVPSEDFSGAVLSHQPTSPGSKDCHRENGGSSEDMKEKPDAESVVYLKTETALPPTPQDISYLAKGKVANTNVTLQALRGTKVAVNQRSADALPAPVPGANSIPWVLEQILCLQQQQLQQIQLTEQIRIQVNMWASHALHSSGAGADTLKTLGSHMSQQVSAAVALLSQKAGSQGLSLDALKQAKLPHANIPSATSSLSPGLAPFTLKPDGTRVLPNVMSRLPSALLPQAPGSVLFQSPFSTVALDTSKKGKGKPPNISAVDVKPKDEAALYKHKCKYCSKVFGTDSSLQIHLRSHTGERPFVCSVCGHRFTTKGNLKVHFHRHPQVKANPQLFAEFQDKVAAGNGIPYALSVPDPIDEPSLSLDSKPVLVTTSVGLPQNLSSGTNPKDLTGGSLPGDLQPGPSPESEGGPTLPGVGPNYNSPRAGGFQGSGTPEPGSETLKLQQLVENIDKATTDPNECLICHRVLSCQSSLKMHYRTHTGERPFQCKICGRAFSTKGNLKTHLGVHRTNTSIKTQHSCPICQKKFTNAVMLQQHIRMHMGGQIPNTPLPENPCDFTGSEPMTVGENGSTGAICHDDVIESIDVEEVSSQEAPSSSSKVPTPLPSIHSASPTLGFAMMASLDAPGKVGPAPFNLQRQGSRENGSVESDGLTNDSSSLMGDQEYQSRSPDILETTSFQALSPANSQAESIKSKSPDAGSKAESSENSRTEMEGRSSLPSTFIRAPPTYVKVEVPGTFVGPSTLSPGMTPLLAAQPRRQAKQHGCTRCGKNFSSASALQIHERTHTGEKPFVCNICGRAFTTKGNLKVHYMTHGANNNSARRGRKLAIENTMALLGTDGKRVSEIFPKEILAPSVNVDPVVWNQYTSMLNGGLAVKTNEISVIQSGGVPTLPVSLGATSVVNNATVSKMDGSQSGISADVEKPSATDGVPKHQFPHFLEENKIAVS
Method: universal PBM
Form: double-stranded DNA, one strand shown
Sample: in vitro
Concentration: 600 nM
Notes: 8-mer, flanks averaged, mean of replicates
Reading: higher = stronger binding
| Oligonucleotide | E-score |
| --- | --- |
| CCATCCTA | -0.0173 |
| GAGGAGGA | -0.166 |
| GTTTCAGA | 0.0428 |
| CGCCTTCC | -0.221 |
| ACACATTC | 0.168 |
| GGAGATGA | -0.0466 |
| ATTTGCAG | 0.182 |
| GGTCGAGA | -0.19 |
| TACTGGCA | 0.0855 |
| ATTCCTCA | 0.194 |
| ATTACCGA | 0.115 |
| AGCTTCCA | -0.1 |
| ATACCTAC | 0.142 |
| CTCAGAAA | 0.0774 |
| ACGACCAA | -0.0225 |
| AAAGTTAG | 0.132 |
| ATGCTCCA | -0.154 |
| CGGGCCGC | -0.441 |
| AACTTAAA | 0.224 |
| CCCACTCC | -0.17 |

Sample 2
Target: RNA binding protein fox-1 homolog 2, RRM domain, GST-SBP tag (RBFOX2, Homo sapiens, UniProt O43251-10, residues 100-194)
Method: RNA Bind-n-Seq
Form: RNA
Sample: in vitro
Concentration: 365 nM
Notes: natural RNA segment, single round, ends assumed
Baseline: no-protein control
Reading: higher = stronger binding
Target sequence (chain): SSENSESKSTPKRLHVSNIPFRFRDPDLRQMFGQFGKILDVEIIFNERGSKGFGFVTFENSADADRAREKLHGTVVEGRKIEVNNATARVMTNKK
| Oligonucleotide | RBNS enrichment (R) |
| --- | --- |
| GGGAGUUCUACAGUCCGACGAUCAAUAGGAUAAUAUACUUCCAAUGCCCUCAAGGCUGUGACCUUACAGCCAUUUUACAUAGCACAUCAUUCCUCCUAUAGGGAUGAACUUUUUCCUGGCACGAAAAGUAGCCUGGAAUUCUCGGGUGCCAA | 0.589 |
| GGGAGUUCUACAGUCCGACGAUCCAAGCCCAAAGUGUCUUUUCAGGAGGGCCAGUAGCCCCCAGGCUGCUGCCCACAUUAGCACAGUUUUCCCAGGGCCUCCCUGACUGCACCAGUAGGGUCUGGACCCCAGCUGGAAUUCUCGGGUGCCAA | 0.397 |
| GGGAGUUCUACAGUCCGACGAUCAUGCACAGUGACCCAGCUGAGUGGCAGGUGGUUGGAGGCAAGGACAUUUAUGUGGGCCACAUACCCAAACUUCCUGCCAUGUAAAGGCGAGUGAUUGUGAAAGCACCUCUUGGAAUUCUCGGGUGCCAA | 0.249 |
| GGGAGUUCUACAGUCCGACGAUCUUCUGUACCACUUGAGGUAUAUGUUUAGUUUUUUUACGUAUCUUCUAAGAAGCUCAGUUUUGCGGUUUUGAUUUCAGGUUGCAAACAUUUAAAUUGUGCACAGCAACAGGUGGAAUUCUCGGGUGCCAA | 0.295 |
| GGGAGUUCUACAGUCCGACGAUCAGAUGCCAAGAUGCUGCCUACGUUUGCAAAAGUUGUCUAAGAAUUCACCAUGAGCUAUAUUUUCUUCUGGAUCUUUGACCAAGGUGAUGUCAGCUUAUUUCUGGGGAAGGUGGAAUUCUCGGGUGCCAA | 0.717 |
| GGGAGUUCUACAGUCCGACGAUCUCAAGCCCUGCUUCUCAGCUAGUGAGCAUCAGCCCAAAGUCAGAACUCACAGGGGAUUCUCUGCAUUCAUCCCGGGUCUGUCCUCUCUGACUCUGCUACAUACAGGGUCCUGGAAUUCUCGGGUGCCAA | 0.318 |
| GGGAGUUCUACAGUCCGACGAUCACAAAGGGAAACAGAUACUUGAUAUGAAAGCCAUAAUGACGGUGACUUGUGUCGUGGGGGAAAACAUAAGGUCAUUUUCUCCCUCUACUCACAAUACUAAAGGGAAAAAAUGGAAUUCUCGGGUGCCAA | 0.77 |
| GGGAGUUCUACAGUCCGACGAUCUAAGAUAAUUUCAGAAGUUCAGUCUAUUUUUUCAGCGGAUACUGCCGCCACCAAGAAUCCAAAACCUAUUUUUGACUUGGAGAGACUUGCUUUUGUUGGUUCCGCCCGUGUGGAAUUCUCGGGUGCCAA | 0.403 |
| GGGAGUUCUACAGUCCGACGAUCGUGUCCUACUCCAUUUACUGGUUACAAGGUGAUGUCAACAAGAGAAGCUAUCACAACACCAGGGCUGUGCACACGUGCACACACAUGUAUGCACAAGCACACAGAUGUAUUGGAAUUCUCGGGUGCCAA | 0.349 |

Sample 3
Target: RING finger protein unkempt homolog, zinc fingers 1-6, GST-SBP tag (UNK, Homo sapiens, UniProt Q9C0B0, residues 30-357)
Method: RNA Bind-n-Seq
Form: RNA
Sample: in vitro
Concentration: not given
Notes: RNA with constant flanks, human-mouse chimeric sites, ends assumed
Baseline: input RNA pool
Reading: higher = stronger binding
Target sequence (chain): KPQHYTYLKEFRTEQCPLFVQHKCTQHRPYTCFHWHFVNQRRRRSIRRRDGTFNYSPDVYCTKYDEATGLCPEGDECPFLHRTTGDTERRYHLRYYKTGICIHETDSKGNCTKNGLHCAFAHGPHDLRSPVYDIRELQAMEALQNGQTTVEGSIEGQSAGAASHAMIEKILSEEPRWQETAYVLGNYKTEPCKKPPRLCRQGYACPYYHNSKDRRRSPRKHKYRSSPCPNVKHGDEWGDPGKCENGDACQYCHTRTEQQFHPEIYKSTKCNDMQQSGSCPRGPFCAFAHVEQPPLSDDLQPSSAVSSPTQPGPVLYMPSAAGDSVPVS
| Oligonucleotide | bound/input enrichment [ratio] |
| --- | --- |
| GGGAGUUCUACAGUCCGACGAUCACUCAGAGAUCCACCUCCCAAAGUGCUGGGAGUAAAGGUGUGGCCACCACACCUAACUUCAUAGACAUUUUAUAAAGUUAAUAUGAAUCUUCCUGUUCGUCCAGGGAAGAAAGAUUUGUUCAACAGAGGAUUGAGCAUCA | 1.12 |
| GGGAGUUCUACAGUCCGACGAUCAAUUUCCUGUCAUACUUUUUAGACAUUCACAUCAGACUUACAGAGCACCUGGCCACAUUCUAGGUUUGUGUUAUUUCUCAGCUAUGGGGGUAUGAUUAUGAGAACACUGCUUAACUAAUGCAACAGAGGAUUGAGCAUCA | 0.825 |
| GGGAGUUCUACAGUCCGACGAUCUGGCGCCUCCCAUUUUUACUCGUGUUUUUAAGUGUAUUUUUAUAAGAUACAUGUAUUUACAAUUGAGUUUUUGAUUAAUAAUGCUGAAAUGCUACUGGAGAUUAUGAAAAAUGUUUCAAUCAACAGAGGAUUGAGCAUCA | 0.193 |
| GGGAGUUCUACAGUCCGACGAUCAAAGAGAAAGCUAAAACACUAAUAGAGAAGAGGAUUGGCAAAGAGAAUUUCAUAGAGAAACUAGGAUUUAUUAGCAAACAUGAGUUAGUAUUCCAGACGUCUCAGAAACCCCAGCCAAACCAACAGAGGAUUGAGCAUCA | 2.47 |
| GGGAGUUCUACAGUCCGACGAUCUGACAAGGGCACUGCAGAGCCAUGCCUUUCCUUGACAUCCAGAAAAGGCUGGGCAUCAGCCUGGACCGGCACUUUAUGUUCCUAAGCGCAGAACAGCCCUACAAGAUCGCCGCUCGGUGCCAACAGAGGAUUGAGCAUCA | 0.0749 |
| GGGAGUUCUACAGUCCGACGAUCAAUUUCCUGUCAUACUUUUUAGACAUUCACAUCAGACUUACAGAGCACCUGGCCACAUUCUAGGUUUGUGUUAUUUCUCAGCUAUGGAUAUGAUCAAAGAGUGAAAAUGCUUAACUAAUGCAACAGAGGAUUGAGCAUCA | 0.393 |
| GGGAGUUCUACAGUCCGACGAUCACAGUUAUAUUGUUGAGGUUUGUAUUUAUAUAUUCUUAUGGUGUCUGCUUGCCUGUGACUUCUGGUAAAAUAAAAUAAGCCUUUGAAAAUAUUUUAGCAUGGUAUUUAACAUUUUCUAAACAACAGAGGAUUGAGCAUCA | 1.83 |
| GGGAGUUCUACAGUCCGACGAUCUUAAUCCCCUUUACUGCUCCACCACUGCUCAUGGUAAUAACAAAGUCUUAUAUCCCCGUCCUAGCUUUCACUCAGAUGGCUUAUGGAGCCGGUUUCCUAGCUUUCUUGGGUGGGAUCAGACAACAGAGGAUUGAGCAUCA | 0.344 |
| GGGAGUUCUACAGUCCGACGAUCGUGUCCUGCUUUCAACUAUCACUGAGGAGGCAUCUCUACUGUUCUGUGAGCAUCAGGAUUUUAGUGCUGUGUCACCACAUGAGAGUUCAGAAGCAGCCUUUCUGUGGAGGGUGGGAAUGACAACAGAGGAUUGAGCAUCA | 0.0838 |
| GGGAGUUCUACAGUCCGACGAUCAAAUUUCCCCUCCUGAGACCUCCUCCGAAGUUGGAGUCUCUUACAGAUGCCUCAUCCCCUGUUAGCGUUUUAGUUUGGACCACACAACCUUGGACAAUUCCCGCCAACCAGGCAAUUUGCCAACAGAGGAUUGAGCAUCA | 2.16 |
| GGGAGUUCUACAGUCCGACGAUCAAAGGCAAAAAGGGCAGCUGUGUCAUUUCAUAAGUAACUCUGGGGGAGGGAAAUUCUGUUCUUUUGUUUAAUUUUCCCCCAAAUGAAGCCAAAGUGUUUUUUAAGGAACUGAGAAAAAAUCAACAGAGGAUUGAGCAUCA | 0.402 |

Sample 4
Target: Phosphate system positive regulatory protein PHO4, full length, GST-tagged (PHO4, Saccharomyces cerevisiae, UniProt P07270, residues 1-312)
Method: competition protein-binding microarray
Form: double-stranded DNA, one strand shown
Sample: in vitro
Concentration: 2 µM
Notes: whole 60-bp probe, lowest competitor level
Added: Cbf1 competitor, 0.05 µM
Reading: higher = stronger binding
Target sequence (chain): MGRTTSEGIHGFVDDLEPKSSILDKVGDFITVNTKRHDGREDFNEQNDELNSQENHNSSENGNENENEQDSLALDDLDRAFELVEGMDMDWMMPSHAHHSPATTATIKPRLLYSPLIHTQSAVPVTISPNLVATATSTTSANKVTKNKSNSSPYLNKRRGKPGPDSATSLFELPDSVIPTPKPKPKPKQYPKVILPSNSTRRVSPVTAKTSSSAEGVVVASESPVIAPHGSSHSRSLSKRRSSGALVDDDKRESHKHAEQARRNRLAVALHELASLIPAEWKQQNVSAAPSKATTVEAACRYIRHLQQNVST
| Oligonucleotide | fluorescence intensity [a.u.] |
| --- | --- |
| TTCACAGATATTTCTTCCGTGATGGTTTAATGGTCAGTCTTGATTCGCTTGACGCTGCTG | 3660 |
| CTTTCCCGATCTTGCGGTGTGGGTGTAGCACATTTGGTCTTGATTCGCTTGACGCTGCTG | 5920 |
| AGTTCAACAAAACCAAACATGACAATACCACTTATGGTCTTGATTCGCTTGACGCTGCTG | 5120 |
| CCTTCGTTGTTATCGTCCGTGTCGGTATCCACTTCCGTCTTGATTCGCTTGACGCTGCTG | 4990 |
| CTAACGAAGGTTTGAAAAGTGGGTGACAAGCCAAGTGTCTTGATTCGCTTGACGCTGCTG | 3620 |
| AACTGGTGGAGGTGGAACGTGTCCAGGCAGTGCAGGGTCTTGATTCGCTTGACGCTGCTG | 13600 |
| CGGGGTTAAGTTTTTCACGTGGTATGCTTGCAGCAGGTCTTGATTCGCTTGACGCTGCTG | 14300 |
| AAAGCGGTAATTTGAGACGTGGGTGCAGATATCTATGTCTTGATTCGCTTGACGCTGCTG | 6470 |
| TATAATCCTGGTCGGAACGTGCAAAATATGAGAACGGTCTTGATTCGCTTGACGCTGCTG | 12500 |
| CGGGGTTAAGTTTGGAGAGTGGGTGGCTTGCAGCAGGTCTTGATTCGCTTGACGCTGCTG | 4520 |
| GGGAGACACTTCCGTCACGTGAACCTCTATCTATTTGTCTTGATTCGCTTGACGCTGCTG | 10900 |
| ATATTATCTTGCGAGCATGTGCACTCAATTTCGGGGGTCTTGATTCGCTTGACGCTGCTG | 12700 |
| CTTTCCCGATCTTGGGAGGTGGGTGTAGCACATTTGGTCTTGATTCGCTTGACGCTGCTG | 4800 |
| AGAGTAGTCAGTCAACACGTTACCTCTGGTAACAGAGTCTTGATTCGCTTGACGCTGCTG | 7440 |
| TTTTAAGGGTTTCGCCATGTGGCATGCCACCGGCAAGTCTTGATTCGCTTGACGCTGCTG | 8780 |
| CTAACGAAGGTTTGTTACGTGGGTGACAAGCCAAGTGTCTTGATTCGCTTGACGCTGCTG | 6330 |
| TATCTTGACTATTGCCACGTTGCGGTAGGTGGTACGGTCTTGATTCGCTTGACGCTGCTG | 16000 |
| TCGAACAGCCAAGTTTGCGTGGTTACAAGATAAAATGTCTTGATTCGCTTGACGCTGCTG | 5700 |
| GATAATTGAGTGTGTTCGTCATAATTTTTAATAAGGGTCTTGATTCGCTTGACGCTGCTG | 5530 |
| ATATATCATTGGTTCCACGTTCACTTCCCTTATTACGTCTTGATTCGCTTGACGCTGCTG | 11200 |
| ACTTCTCCATTCCGTCAGCTGATACTCTATTCGGTTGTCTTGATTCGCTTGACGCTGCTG | 4120 |

Some of these lines once more (sample 1):
| Oligonucleotide | E-score |
| --- | --- |
| CCCACTCC | -0.17 |
| GGAGATGA | -0.0466 |
| GAGGAGGA | -0.166 |
| AAAGTTAG | 0.132 |
| ATTACCGA | 0.115 |
| ATTTGCAG | 0.182 |
| CCATCCTA | -0.0173 |
| AGCTTCCA | -0.1 |
